Assay results of several laboratories.
Protocols differ between the studies behind these lines. Numbers after ± are the reported error.
Target: Acetylcholinesterase (ACHE, Homo sapiens, UniProt P22303)
UniProt P22303, sequence (whole entry, looked up): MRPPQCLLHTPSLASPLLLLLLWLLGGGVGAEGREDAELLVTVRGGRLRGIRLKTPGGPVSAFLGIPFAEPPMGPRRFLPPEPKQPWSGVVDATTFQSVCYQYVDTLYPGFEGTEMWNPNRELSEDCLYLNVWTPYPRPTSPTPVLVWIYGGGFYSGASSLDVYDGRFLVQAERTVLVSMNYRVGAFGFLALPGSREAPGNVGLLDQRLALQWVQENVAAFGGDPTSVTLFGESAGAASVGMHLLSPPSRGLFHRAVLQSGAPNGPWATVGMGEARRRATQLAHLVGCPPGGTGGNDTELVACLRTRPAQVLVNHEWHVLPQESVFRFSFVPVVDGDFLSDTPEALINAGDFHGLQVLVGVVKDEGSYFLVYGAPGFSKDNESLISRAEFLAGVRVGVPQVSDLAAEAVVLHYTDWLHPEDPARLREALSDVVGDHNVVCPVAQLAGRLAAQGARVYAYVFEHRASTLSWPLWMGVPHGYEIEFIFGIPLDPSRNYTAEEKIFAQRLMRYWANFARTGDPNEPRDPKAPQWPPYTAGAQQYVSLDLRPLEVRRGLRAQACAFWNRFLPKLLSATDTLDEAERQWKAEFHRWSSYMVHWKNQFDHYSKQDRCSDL

`O=c1ccoc2ccc(OCCCCN3CCOCC3)cc12` has a αKi of 13.5 ± 4.1 µM (uncompetitive inhibitor, Ellman; human erythrocyte ghosts).
The Ki' of `COc1cc2c(cc1OC)C(=O)/C(=C\c1ccc(N3CCCCC3)cc1)C2` is reported as 37 µM (non-competitive inhibitor, secondary plot).
`O=C(O)/C=C/c1cc(O)cc(O)c1` has an inhibition of 74.3 ± 1.4% (enzyme activity, inhibitor; 500 µg/mL).
For `COc1cc2c(cc1OC)C(=O)/C(=C\c1ccc(-n3cccn3)cc1)C2`, the Ki' was 51 µM (non-competitive inhibitor, secondary plot).
`C=CCc1ccc(OC(=O)Cn2cnc3c2c(=O)n(C)c(=O)n3C)c(OC)c1` has an inhibition of 61.4% (enzyme activity, inhibitor, Ellman; 25 µM).
The αKi of `CCN(CC)CCCCCOc1ccc2occc(=O)c2c1` is reported as 5.23 ± 1.46 µM (uncompetitive inhibitor, Ellman; human erythrocyte ghosts).
The inhibition of `CCS(=O)(=O)N1CCN(CC(=O)Nc2ccc(/C=C/C(=O)c3ccc(OC)c(OC)c3)cc2)CC1` is reported as 85.8 ± 1.4% (enzyme activity; 100 µM).
`COC(=O)c1ccc(-n2nc(-c3ccccc3O)nc2-c2ccccc2O)cc1`: enzyme inhibition “inhibited” (modified Ellman's method; concentration not given).
For `S=C(NCc1ccccn1)NCc1ccccn1`, the inhibition was 72.2% (enzyme activity, inhibitor; 500 µg/mL).
The inhibition of `O=c1c(O)c(-c2cc(O)ccc2O)oc2cc(O)cc(O)c12` is reported as 54.2 ± 2.28% (enzyme activity, inhibitor; 125 µg/mL).
With `O=C(O)/C=C/c1ccc(O)cc1` the inhibition was 83.4 ± 0.5% (inhibitor; 1000 µg/mL).
`O=C(O)CCCC(=O)O` has an inhibition of 70.2 ± 1.51% (enzyme activity, inhibitor; 500 µg/mL).
The αKi of `O=c1ccoc2ccc(OCCCCN3CCCC3)cc12` is reported as 2.82 ± 0.16 µM (uncompetitive inhibitor, Ellman; human erythrocyte ghosts).
The inhibition of `COc1cc(C=O)ccc1OC(=O)CSc1nnc(Cn2cnc3c2c(=O)n(C)c(=O)n3C)o1` is reported as > 75% (enzyme activity, inhibitor, Ellman; 25 µM).
`COc1cc2c(cc1OC)C(=O)/C(=C\c1ccc(N3CCCC3)cc1)C2` gave a Ki' of 170 µM (non-competitive inhibitor, secondary plot).
For `Nn1c(-c2ccc(-n3nc(-c4ccccc4O)nc3-c3ccccc3O)cc2)n[nH]c1=S`, enzyme inhibition read “inhibited” (modified Ellman's method; concentration not given).
